# Measurements collected from several papers.
# Several values in a cell are separate wells, animals, samples, runs or records. ± gives the spread as reported.
Compound,target or system,test,system,conditions,endpoint,value
CC[C@H](C)[C@H](NC(=O)[C@H](CCCNC(=N)N)NC(=O)[C@H](CCCCN)NC(=O)[C@H](Cc1ccc(O)cc1)NC(=O)[C@H](CC(=O)O)NC(=O)[C@H](C)NC(=O)CNC(=O)CCOCCOCCOCCNC(=O)CN1CCN(CC(=O)O)CCN(CC(=O)O)CCN(CC(=O)O)CC1)C(=O)N[C@H](C(=O)N[C@@H](CC(C)C)C(=O)N[C@@H](CCCCN)C(=O)N[C@H](C(=O)N[C@@H](CC(N)=O)C(N)=O)C(C)C)[C@@H](C)O [copper-64 labelled],,ex vivo gamma counting,"C57BL/6J male mice, B16-F10 tumour, muscle","intravenous, 1.85 MBq, 20 min",tissue uptake,0.939 ± 0.285 %ID/g
O=C1NC2(CC2)COc2ncc(F)cc2[C@H]2COCCN2c2ccn3ncc1c3n2,,,"Sprague-Dawley rat, male, brain","oral, 5 mg/kg/day, 4 weeks",organ weight,2.17 ± 0.075 g
C[C@H](O)[C@@H](NC(=O)[C@H]1CCCN1C(=O)[C@@H](CCCCN)NC(=O)[C@@H](CO)NC(=O)[C@@H](Cc1ccc(O)cc1)NC(=O)[C@@H](CC(N)=O)NC(=O)CCOCCOCCOCCNC(=O)CN1CCN(CC(=O)O)CCN(CC(=O)O)CCN(CC(=O)O)CC1)C(=O)N[C@H](CC(=O)O)C(=O)N[C@H](CCCNC(=N)N)C(=O)N[C@H](CCC(N)=O)C(=O)N[C@H](Cc1ccc(O)cc1)C(=O)N[C@H](Cc1c[nH]cn1)C(=O)N[C@H](Cc1ccccc1)C(N)=O [gallium-68 labelled],,,"BALB/c nude mice U-87 MG tumour, lung","intravenous, 1.85 MBq, 1 h, radiolabelled",tissue uptake,0.13 ± 0.05 %ID/g
CC[C@H](C)[C@H](NC(=O)[C@H](CCCNC(=N)N)NC(=O)[C@H](CCCCN)NC(=O)[C@H](Cc1ccc(O)cc1)NC(=O)[C@H](CC(=O)O)NC(=O)[C@H](C)NC(=O)CNC(=O)CCOCCOCCOCCNC(=O)CN1CCN(CC(=O)O)CCN(CC(=O)O)CCN(CC(=O)O)CC1)C(=O)N[C@H](C(=O)N[C@H](C(=O)N[C@@H](CCCCN)C(=O)N[C@H](C(=O)N[C@@H](CC(N)=O)C(N)=O)C(C)C)C(C)C)[C@@H](C)O [copper-64 labelled],,,"C57BL/6J mouse male, B16-F10 tumour, small intestine","intravenous, 1.85 MBq, 20 min, 67Ga complex",tissue uptake,2.63 ± 0.396 %ID/g
CC(C)C[C@@H](NC(=O)[C@@H](CCCNC(=N)N)NC(=O)[C@@H](Cc1c[nH]cn1)NC(=O)[C@@H](Cc1c[nH]c2ccccc12)NC(=O)[C@@H](Cc1c[nH]cn1)NC(=O)[C@@H](Cc1ccccc1)NC(=O)[C@H](NC(=O)[C@@H](Cc1ccc(O)cc1)NC(=O)CNC(=O)CNC(=O)CCOCCOCCOCCNC(=O)CN1CCN(CC(=O)O)CCN(CC(=O)O)CC1)[C@H](C)O)C(=O)N[C@H](CC(N)=O)C(=O)N1CCC[C@@H]1C(=O)O [gallium-68 labelled],,gamma counting,"C57BL/6 mice, male, muscle","intravenous, 1.85 MBq, 30 min",tissue uptake,1.1 ± 0.26 %ID/g
CSCC[C@H](NC(=O)CNC(=O)[C@H](CCCCN)NC(=O)[C@H](CC(C)C)NC(=O)[C@@H]1CCCN1C(=O)[C@H](CO)NC(=O)[C@H](Cc1c[nH]cn1)NC(=O)[C@H](Cc1c[nH]c2ccccc12)NC(=O)[C@H](CCCNC(=N)N)NC(=O)[C@H](CC(C)C)NC(=O)[C@H](CCCNC(=N)N)NC(=O)[C@H](Cc1c[nH]c2ccccc12)NC(=O)[C@H](CS)NC(=O)CCCCCNC(=O)CN1CCN(CC(=O)O)CCN(CC(=O)O)CCN(CC(=O)O)CC1)C(=O)O [copper-64 labelled],,,"BALB/c nude mouse, Huh-7 tumour, lymph node","intravenous, 18 h, ex vivo biodistribution",tissue uptake,1.54 %ID/g
Cc1ccc(OCCN(C)C)cc1C(=O)N[C@H](C)c1cc(-c2ccco2)nc2ccccc12,Vero E6,,,250 µM,viability,7.88% and 9.04%
CCCC[C@H]1C(=O)N(C)[C@@H](CCCC)C(=O)N[C@@H](CCCNC(=O)CN2CCN(CC(=O)O)CCN(CC(=O)O)CCN(CC(=O)O)CC2)C(=O)N[C@H](C(=O)NCC(N)=O)CSCC(=O)N[C@@H](Cc2ccc(O)cc2)C(=O)N(C)[C@@H](C)C(=O)N[C@@H](CC(N)=O)C(=O)N2CCC[C@H]2C(=O)N[C@@H](Cc2c[nH]cn2)C(=O)N[C@@H](CC(C)C)C(=O)N(C)CC(=O)N[C@@H](Cc2c[nH]c3ccccc23)C(=O)N[C@@H](CO)C(=O)N[C@@H](Cc2c[nH]c3ccccc23)C(=O)N1C [gallium-68 labelled],,,"NOD/SCID mice, CHO-hPD-L1 xenograft, liver","60 min, atezolizumab 10 mg/kg pretreatment",tissue uptake,8.46 ± 0.97 %ID/g
CCn1ccc(-c2cc(-c3cnn(C)c3)cc([C@@H](C)NC(=O)c3cc(OCCN(C)C)ccc3C)c2)n1,African green monkey cells,,,31.25 µM,viability,97.2%
CN1Cc2cc(Cl)ccc2-n2c(nnc2C2CCN(c3cccc([18F])n3)CC2)C1,,,"C57BL/6 mouse male, bone","intravenous, 3.7 MBq, 30 min",tissue uptake,6.93 ± 1.23 %ID/g
CC[C@H](C)[C@H](NC(=O)[C@H](CCCCN)NC(=O)CNC(=O)[C@H](CC(C)C)NC(=O)[C@H](Cc1ccccc1)NC(=O)[C@H](CCCCN)NC(=O)[C@H](CO)NC(=O)[C@H](Cc1ccccc1)NC(=O)[C@H](Cc1c[nH]c2ccccc12)NC(=O)[C@H](CCC(N)=O)NC(=O)[C@@H](NC(=O)[C@H](Cc1ccccc1)NC(=O)CCCCCNC(=O)CN1CCN(CC(=O)O)CCN(CC(=O)O)CCN(CC(=O)O)CC1)C(C)C)C(=O)N[C@@H](CCC(=O)O)C(=O)N1CCC[C@H]1C(=O)N[C@@H](CC(=O)O)C(=O)N[C@H](C(=O)N[C@@H](CO)C(=O)N[C@@H](CCC(N)=O)C(=O)N[C@H](C(=O)N[C@@H](CCC(N)=O)C(=O)N[C@@H](CC(=O)O)C(=O)N1CCC[C@H]1C(=O)N[C@@H](CC(N)=O)C(=O)N[C@@H](CC(=O)O)C(=O)N[C@@H](CCC(N)=O)C(=O)N[C@@H](Cc1ccc(O)cc1)C(=O)N[C@@H](CCC(=O)O)C(=O)N1CCC[C@H]1C(=O)N[C@@H](Cc1ccccc1)C(=O)O)C(C)C)C(C)C [copper-64 labelled],,,"GZMB-/- mice, CT26 tumour-bearing, small intestine","2 h, checkpoint inhibitor-treated",tissue uptake,5.47 ± 1.1 %ID/g

# Repeated from above:
Compound,target or system,test,system,conditions,endpoint,value
CCn1ccc(-c2cc(-c3cnn(C)c3)cc([C@@H](C)NC(=O)c3cc(OCCN(C)C)ccc3C)c2)n1,African green monkey cells,,,31.25 µM,viability,97.2%
